Measured values of several laboratories.
Protocols differ between the studies behind these lines. Several values in a cell are separate wells, animals, samples, runs or records. Numbers after ± are the reported error. Values after ≈ are worked out from the molar mass of the structure shown.

Cc1cc(Cl)cc(S(C)=NC#N)c1NC(=O)c1cc(Br)nn1-c1ncccc1Cl (stereo not drawn)  mortality (Spodoptera litura; leaf-dip; third instar larvae; 6.25 ppm, 48 h): 43.3%
CN(C)c1nc(NCc2ccc(F)cc2F)c(/N=N/c2ccc(Cl)cc2)c(N(C)C)n1  mortality (Plutella xylostella; leaf dipping; 200 mg/L, 96 h): 53.3 ± 5.8%
C#CCN1C(=O)C(CC#C)(C(=O)OCC)Oc2ccccc21 (stereo not drawn)  stem length inhibition (Arabidopsis thaliana; Col-0, seed germination, dark; 50 µg/mL, 7 days, 22 °C): 100%
COc1ccc2nc3cc(Cl)ccc3c(Nc3cc(C(C)C)c(O)cc3C)c2c1  IC50 (HIV-1 subtype C; viral replication; 96 h): 12500 nM
CCCCCCCCCC(=O)NCCCC[C@H](NC(=O)CCCCCCCCC)C(=O)N[C@@H](CCCCNC(=O)CCCCCCCCC)C(=O)NCC(=O)NCC(=O)NCC(=O)N[C@@H](CS)C(=O)N[C@@H](CCCNC(=N)N)C(=O)N[C@@H](CCCCN)C(=O)N1CCC[C@H]1C(=O)N[C@@H](CS)C(=O)N[C@@H](CCCNC(=N)N)C(=O)N[C@@H](CCCCN)C(=O)N1CCC[C@H]1C(N)=O  MIC (Candida albicans; broth microdilution; 17546, RPMI-1640; 48 h, 30 °C): 32 µM (≈ 60 µg/mL)
O=C1NC2(CC2)COc2ncc(F)cc2[C@H]2COCCN2c2ccn3ncc1c3n2  organ-to-brain weight ratio (Sprague-Dawley rat, female, spleen; oral, 10 mg/kg/day, 4 weeks dosing, end of recovery): 41.1 ± 4.97%
CCc1nn(C)c2nc(-c3ccc(C(=O)O)cc3)nc(NCc3ccccc3)c12  parasite number (Cryptosporidium parvum; HCT-8; 12 x EC90, 24 h; baseline: DMSO control): 37.6% and 32.5% and 30.5% and 29.8%
[O-][N+]1=C(c2ccccc2)C2=NCCN2c2ccccc21  MIC50 (Fusobacterium nucleatum; microbial growth): ≤ 0.06 µg/mL
CCOC(=O)C1(CC#N)Oc2cc(F)ccc2N(CC#N)C1=O (stereo not drawn)  inhibition (Arabidopsis thaliana; root length, petri dish germination; Col-0, 1/2 MS medium; 200 µg/mL, 7 days, 22 °C, dark): 100%
C[N+]1=C2C(c3ccccc3)=[N+]([O-])c3ccccc3N2CCC1  MIC90 (Fusobacterium nucleatum): 4 µg/mL
CCOC(=O)C1(Cc2ccc(C#N)cc2)Oc2cc(F)ccc2N(Cc2ccc(C#N)cc2)C1=O (stereo not drawn)  inhibition (Arabidopsis thaliana; root length, petri dish germination; Col-0, 1/2 MS medium; 50 µg/mL, 7 days, 22 °C, dark): 38.2%
CC(C)C[C@H](NC(=O)[C@H](CC(C)C)NC(=O)[C@H](CCCCN)NC(=O)[C@H](Cc1ccccc1)NC(=O)[C@@H](NC(=O)[C@H](CCCNC(=N)N)NC(=O)[C@@H](N)CCCCN)C(C)C)C(=O)N[C@@H](CCCCN)C(=O)N[C@@H](CCCNC(=N)N)C(=O)N[C@@H](Cc1ccc(O)cc1)C(=O)N[C@@H](Cc1c[nH]c2ccccc12)C(=O)N[C@@H](CCCNC(=N)N)C(=O)N[C@@H](CCC(N)=O)C(=O)N[C@@H](CC(C)C)C(=O)N[C@@H](CCCCN)C(=O)N[C@@H](CCCCN)C(=O)N1CCC[C@H]1C(=O)N[C@H](C(=O)N[C@@H](CCCNC(=N)N)C(=O)NCCOCCOCC(=O)O)C(C)C  live/dead fluorescence reduction (Pseudomonas aeruginosa and Staphylococcus aureus; confocal microscopy; mixed biofilm; 10 µM, 6 h, biofilm, pre-formed, 24 h): 95.2%
CCCCCCCC(=O)NCCCC[C@H](NC(=O)CCCCCCC)C(=O)N[C@@H](CCCCNC(=O)CCCCCCC)C(=O)NCC(=O)NCC(=O)NCC(=O)N[C@@H](CS)C(=O)N[C@@H](CCCNC(=N)N)C(=O)N[C@@H](CCCCN)C(=O)N1CCC[C@H]1C(=O)N[C@@H](CS)C(=O)N[C@@H](CCCNC(=N)N)C(=O)N[C@@H](CCCCN)C(=O)N1CCC[C@H]1C(N)=O  MIC (Candida albicans; broth microdilution; SP 3931, RPMI-1640; 48 h, 30 °C): 16 µM (≈ 28.7 µg/mL)
CCOC(=O)C1(CC)Oc2cc(F)ccc2N(CC)C1=O (stereo not drawn)  inhibition (Arabidopsis thaliana; root length, petri dish germination; Col-0, 1/2 MS medium; 50 µg/mL, 7 days, 22 °C, dark): 55.3%
C[C@H]1[C@H](OC(=O)CCC(=O)OCc2nnn(-c3cc4ccc(O)cc4oc3=O)c2COC(=O)CCC(=O)O[C@@H]2O[C@@H]3O[C@@]4(C)CC[C@H]5[C@H](C)CC[C@@H]([C@H]2C)[C@@]35OO4)O[C@@H]2O[C@@]3(C)CC[C@H]4[C@H](C)CC[C@@H]1[C@@]24OO3  median survival (Plasmodium berghei; NK65/GFP, infected mice; oral gavage, 65 µmol/kg once daily, 96 h dosing period): 32 days
CN(C(=O)c1ccn2ncc(-c3ccc(C(N)=O)cc3)c2c1)c1ccc(C#N)cn1  faecal Nluc luminescence (Cryptosporidium parvum; UGA1 Nluc, IFN-gamma knockout C57BL/6 mice, faeces; oral, 10 mg/kg daily, 168 h post infection, treatment days 11-17; higher means more parasites): 22200 a.u. and 21300 a.u. and 61900 a.u. and 12400 a.u. and 4220 a.u.
CCOC(=O)C1(Cc2cc(F)c(F)c(F)c2)Oc2cc(F)ccc2N(Cc2cc(F)c(F)c(F)c2)C1=O (stereo not drawn)  inhibition (Arabidopsis thaliana; root length, petri dish germination; Col-0, 1/2 MS medium; 50 µg/mL, 7 days, 22 °C, dark): 35%
Cc1cc(C(=O)Nc2nc3cccc(C)c3n2[C@H]2CCCCN(C(=O)/C=C/CN(C)C)C2)ccn1  EC50 fold shift (Trypanosoma brucei; Alamar Blue; 2T1, Tb927.11.12410 overexpression; baseline: parental 2T1 line): 6.25 fold and 7.2 fold and 4.83 fold and 6.74 fold
CC(=O)c1c(O)c(C)c(O)c2c1OC1=CC(=O)C(=C(C)NCCCC(=O)OC3OC4OC5(C)CCC6C(C)CCC(C3C)C46OO5)C(=O)C12C (stereo not drawn)  parasitaemia inhibition (Plasmodium berghei; ANKA GFP, NMRI mouse; oral, 4 x 3 mg/kg, day 4 post infection): 81.9%
CCOC(=O)C1(Cc2ccccc2)Oc2cc(C)ccc2N(Cc2ccccc2)C1=O (stereo not drawn)  inhibition (Arabidopsis thaliana; root length, petri dish germination; Col-0, 1/2 MS medium; 200 µg/mL, 7 days, 22 °C, dark): 100%
COc1cccc(COc2ccc(Nc3ncnc4ccc(-c5ccc(S(=O)(=O)N6CCOCC6)cc5)cc34)cc2Cl)c1  EC50 (Plasmodium falciparum; parasite growth, SYBR Green; D6; blood stage): 230 nM
NCCO.O=C(O)C(Cl)Cl  herbicidal inhibition (Xanthium sibiricum; 15 mg/mL, 21 days, post-emergence, greenhouse): 0%
CC(C)[C@H]1NC(=O)[C@H](Cc2ccccc2)NC(=O)[C@@H](C(C)C)NC(=O)[C@@H](C)NC(=O)[C@H](CO)NC(=O)[C@@H](Cc2c(-c3ccc(-c4ccccc4)c4ccccc34)[nH]c3ccccc23)NC(=O)[C@@H](CO)NC1=O  MIC90 (Candida albicans; broth dilution): > 50 µM
CS(=O)(=O)c1ccc(-c2ccc3ncnc(Nc4ccc(OCc5cccc(F)c5)c(Cl)c4)c3c2)cc1  EC50 (Plasmodium falciparum; parasite growth, SYBR Green fluorescence; C235 (TM91C235), drug-resistant): 200 nM
CSCC[C@H]1NC(=O)[C@H](Cc2ccccc2)NC(=O)[C@H](NC(=O)[C@@H](N)CCCCN)CSC(=O)[C@H](C(C)C)NC(=O)[C@H](Cc2ccccc2)NC1=O  biofilm formation reduction (Listeria monocytogenes; crystal violet; EGD-e; 100 µM, 24 h, room temperature; baseline: vehicle): 90%
O=CCNCCOn1c(=O)n(OCCNCCO)c(=O)n(OCCNCCOn2c(=O)n(OCCNCCO)c(=O)n(OCCNCCO)c2=O)c1=O  MLC (Bacillus subtilis; broth microdilution): 2 µg/mL (≈ 2.6 µM)
CC(=O)c1c(O)c(C)c(O)c2c1OC1=CC(=O)C(=C(C)NCCCCOC3OC4OC5(C)CCC6C(C)CCC(C3C)C46OO5)C(=O)C12C (mixture of isomers)  parasitaemia inhibition (Plasmodium berghei; ANKA GFP, NMRI mouse; oral, 4 x 30 mg/kg, day 4 post infection): 99.9%
O=S(=O)(c1cccc(-c2ccc3ncnc(Nc4ccc(OCc5cccc(F)c5)c(Cl)c4)c3c2)c1)N1CCCC1  EC50 (Plasmodium falciparum; parasite growth, SYBR Green; D6; blood stage): 190 nM
CCOC(=O)C1(Cc2ccccc2C#N)Oc2cc(F)ccc2N(Cc2ccccc2C#N)C1=O (stereo not drawn)  inhibition (Arabidopsis thaliana; stem length, petri dish germination; Col-0, 1/2 MS medium; 200 µg/mL, 7 days, 22 °C, dark): 45.5%
Fc1cccc(COc2ccc(Nc3ncnc4ccc(-c5cccc(N6CCSCC6)c5)cc34)cc2Cl)c1  EC50 (Plasmodium falciparum; parasite growth, SYBR Green; D6; blood stage): 440 nM
CCC1(CC)CC(=O)N(C2c3cc(C(=O)NC4c5ccccc5CC4O)ccc3OC2(C)COC)C(=N)N1 (stereo not drawn)  EC50 (Plasmodium falciparum; parasite growth; 3D7; blood stage): 0.7 nM
Cc1cc(-c2ccc3ncnc(Nc4ccc(OCc5cccc(F)c5)c(Cl)c4)c3c2)cnc1N1CCOCC1  EC50 (Plasmodium falciparum; parasite growth, SYBR Green; D6; blood stage): 260 nM
CC[C@H](C)CCCCC(=O)N[C@@H](CCN)C(=O)N[C@H](C(=O)N[C@@H](CCN)C(=O)N[C@H]1CCNC(=O)[C@H]([C@@H](C)O)NC(=O)[C@H](CCN)NC(=O)[C@H](CCN)NC(=O)[C@H](CC(C)C)NC(=O)[C@@H](CC(C)C)NC(=O)[C@H](CCN)NC1=O)[C@@H](C)O  MIC fold change (Escherichia coli; daily serial passaging; ATCC 8739; highest sub-MIC, 24 days; baseline: initial MIC): 1.79
O=S(=O)(c1ccc(-c2ccc3ncnc(Nc4ccc(OCc5cccc(Br)c5)c(Cl)c4)c3c2)cc1)N1CCOCC1  EC50 (Plasmodium falciparum; parasite growth, SYBR Green; D6; blood stage): 200 nM
[O-][N+]1=C(c2ccsc2)C2=NCCCN2c2ccccc21  MIC90 (Fusobacterium nucleatum): 0.5 µg/mL
CN1CCN(S(=O)(=O)c2ccc(-c3ccc4ncnc(Nc5ccc(Cl)cc5)c4c3)cc2)CC1  EC50 (Plasmodium falciparum; parasite growth, SYBR Green fluorescence; C235 (TM91C235), drug-resistant): 170 nM
CCOC(=O)C1(Cc2ccc(-c3ccccc3)cc2)Oc2cc(F)ccc2N(Cc2ccc(-c3ccccc3)cc2)C1=O (stereo not drawn)  inhibition (Arabidopsis thaliana; stem length, petri dish germination; Col-0, 1/2 MS medium; 200 µg/mL, 7 days, 22 °C, dark): 45%
O=S(=O)(c1ccc(-c2ccc3ncnc(Nc4ccc(OCc5cccc(F)c5)cc4)c3c2)cc1)N1CCOCC1  EC50 (Plasmodium falciparum; parasite growth, SYBR Green fluorescence; W2, drug-resistant): 2000 nM
C[C@H](NC(=O)Cc1cc(F)cc(F)c1)C(=O)N[C@@H]1C(=O)N(C)c2ccccc2-c2ccccc21  EC50 fold increase (dengue virus 2; viral replication; Huh-7.5.1 overexpressing SPP; baseline: SPP over control): > 10 fold

For quick reference, copied from above:
CCc1nn(C)c2nc(-c3ccc(C(=O)O)cc3)nc(NCc3ccccc3)c12  parasite number (Cryptosporidium parvum; HCT-8; 12 x EC90, 24 h; baseline: DMSO control): 37.6% and 32.5% and 30.5% and 29.8%
[O-][N+]1=C(c2ccccc2)C2=NCCN2c2ccccc21  MIC50 (Fusobacterium nucleatum; microbial growth): ≤ 0.06 µg/mL
CCOC(=O)C1(CC#N)Oc2cc(F)ccc2N(CC#N)C1=O (stereo not drawn)  inhibition (Arabidopsis thaliana; root length, petri dish germination; Col-0, 1/2 MS medium; 200 µg/mL, 7 days, 22 °C, dark): 100%
C[N+]1=C2C(c3ccccc3)=[N+]([O-])c3ccccc3N2CCC1  MIC90 (Fusobacterium nucleatum): 4 µg/mL
CCOC(=O)C1(Cc2ccc(C#N)cc2)Oc2cc(F)ccc2N(Cc2ccc(C#N)cc2)C1=O (stereo not drawn)  inhibition (Arabidopsis thaliana; root length, petri dish germination; Col-0, 1/2 MS medium; 50 µg/mL, 7 days, 22 °C, dark): 38.2%
